Assay results gathered from unrelated publications.
Lines come from different studies, so protocols differ. ± marks the error that the study gave.

Cc1nc(C)c(C=[N+]([O-])C(C)(C)C)nc1C — protein level increase (Western blot, refers to: PGC-1α; mouse, MPTP model, substantia nigra nuclei; 90 mg/kg): 50.6%
CC(C)C[C@H](NC(=O)[C@H](CCCNC(=N)N)NC(=O)CNC(=O)[C@@H](N)CC(C)C)C(=O)N[C@@H](CO)C(=O)N[C@@H](CCC(N)=O)C(=O)N[C@@H](CCC(=O)O)C(=O)N[C@@H](CC(C)C)C(=O)N[C@@H](Cc1c[nH]cn1)C(=O)N[C@@H](CCCNC(=N)N)C(=O)N[C@@H](CC(C)C)C(=O)N[C@@H](CCC(N)=O)C(=O)N[C@H](C(=O)N[C@@H](Cc1ccc(O)cc1)C(=O)N1CCC[C@H]1C(=O)N[C@@H](CCCNC(=N)N)C(=O)N[C@H](C(=O)N[C@@H](CC(N)=O)C(=O)N[C@H](C(=O)NCC(=O)N[C@@H](CO)C(=O)N[C@@H](CC(N)=O)C(=O)N[C@H](C(=O)N[C@@H](Cc1ccc(O)cc1)C(N)=O)[C@@H](C)O)[C@@H](C)O)[C@@H](C)O)[C@@H](C)O — synapsin level increase (refers to: synapsin 1; TgCRND8 mice, brain; icv, dose not given, 5 months; baseline: vehicle): 40%
COc1ccc2nc3ccc(OC)cc3c(SCCCN)c2c1 — 26S proteasome activity (MM1.S, J:NU nude mouse xenograft, tumour lysate; 50 mg/kg): decreased
O=C1CCN(Cc2ccccc2)CC1C(C[N+](=O)[O-])c1ccccc1 (stereo not drawn) — tail flick response (tail immersion test; BALB/c mice; ip, 50 mg/kg, 1.25 h): 63.5%
CN(C)c1cc2ccccc2c(N)n1 — fibrotic area (ICR mouse, CCl4 liver fibrosis; intraperitoneal, 1 and 3 mg/kg daily): decreased
C=CC(=O)Nc1cc(Nc2nccc(-n3ccc4nc(OC)ccc43)n2)c(OC)cc1N(C)CCN(C)C — phospho-EGFR and Ki67 (BALB/c nude mouse, H1975 xenograft; dose not given, 24 h; baseline: vehicle): decreased
CCCCCCCCCCCCCCCC(=O)NCCCC[C@H](N)C(=O)N[C@@H](CC(=O)O)C(=O)N[C@H](C(=O)N[C@@H](Cc1c[nH]cn1)C(=O)N[C@@H](Cc1ccccc1)C(=O)N[C@@H](CCCNC(=N)N)C(=O)N[C@H](C(=O)N[C@@H](Cc1ccccc1)C(=O)N[C@@H](CCCNC(=N)N)C(=O)N[C@@H](CO)C(=O)N[C@@H](Cc1c[nH]cn1)C(=O)N[C@@H](CO)C(=O)N[C@@H](CC(=O)O)C(=O)N[C@@H](Cc1ccc(O)cc1)C(=O)N[C@@H](CCCNC(=N)N)C(=O)N[C@@H](CCCNC(=N)N)C(=O)N[C@H](C(=O)O)[C@@H](C)CC)[C@@H](C)O)[C@@H](C)O — liver weight (C57BL/6J mouse, MCD diet; intraperitoneal, 1.2 nmol/g, 3 weeks, 3 times weekly): 1.28 ± 0.08 g
O=c1[nH]c2ccccc2n1CCCCCN1CCN(c2ccc(F)cc2)CC1 — lowest effective dose (writhing decrease; mouse; subcutaneous, with: acetic acid): 0.1 mg/kg
N[C@@H](CCC(=O)O)C(=O)N1CCC[C@H]1C(=O)NCC(=O)NCC(=O)O — enthalpy of activation (diketopiperazine formation, transition state theory; 1-propanol; concentration not given, 70, 80, 90 °C, 0.5% acetic acid): 16.5 ± 3.59 kcal/mol
COc1c2c(cc3oc(C)cc(=O)c13)O[C@H](C(C)(C)O[C@@H]1O[C@H](CO)[C@@H](O)[C@H](O)[C@H]1O)C2 — hot plate latency (analgesia; mouse; oral, 1 mg/kg, 1.5 h): 9.82 ± 1.08 s
COc1cc(CN2CCN(c3ccc(F)cc3)CC2)c2cc3[n+](cc2c1O)CCc1cc2c(cc1-3)OCO2 — FRAP absorbance (ferric reducing power, FRAP; 10 µg/mL, 30 min; higher is greater reducing power): 0.002 ± 1.05 a.u.
CSCC[C@H](N)C(=O)N1CCC[C@H]1C(=O)NCC(=O)NCC(=O)O — ΔS‡ at 298.15 K (diketopiperazine formation, transition state theory; 1-propanol; 70, 80, 90 °C, 0.5% acetic acid): -19 ± 3 J/(mol·K)
Cc1ccc(C(=O)Nc2ccc(CP(=O)(O)O)cc2CP(=O)(O)O)cc1NC(=O)c1cccc(NC(=O)Nc2cccc(C(=O)Nc3cc(C(=O)Nc4ccc(CP(=O)(O)O)cc4CP(=O)(O)O)ccc3C)c2)c1 — PT (human plasma; 282 µM): 14.2 ± 1.3 s
CCCCCCCCCCCCCCc1sc(NC(=O)CCN2CCC(O)CC2)nc1-c1ccccc1 — inhibition in vivo (paw oedema; mouse; intraperitoneal, 200 µmol/kg): 32.2%
COc1ccc(C2CC(c3ccc(C)cc3)=Nc3ccccc3S2)cc1OC (stereo not drawn) — blood glucose (rat, normal, overnight fasted; oral, 20 mg/kg, 90 min, oral glucose tolerance test, with: glucose 3 g/kg oral): 109 ± 4.11 mg/dL
CC(C)[C@H](N)C(=O)N1CCC[C@H]1C(=O)NCC(=O)NCC(=O)O — enthalpy of activation (diketopiperazine formation, transition state theory; 1-propanol; concentration not given, 70, 80, 90 °C, 0.5% acetic acid): 19.6 ± 0.239 kcal/mol
CC(C)CCC[C@@H](C)[C@H]1CCC([C@@H]2CC[C@H]3C[C@H](O)CC[C@]3(C)[C@H]2O)[C@]1(C)CC(=O)O (stereo partly drawn) — Shp mRNA level (inhibitor; C57BL/6J male mice, antibiotic-treated, liver; oral gavage, 10 mg/kg, with: taurocholic acid 400 mg/kg): inhibited
Cc1ccc(=O)n(-c2ccc(O)cc2)c1 — mRNA level (refers to: Nfkb1, Il1b, Tnfa; BALB/c mouse, CCl4 liver injury, liver; oral, 1 mmol/kg daily, 4 weeks): decreased
CC[C@H]1[C@@H](O)[C@@H]2[C@H](CC[C@]3(C)[C@@H]([C@H](C)CCOS(=O)(=O)[O-])CC[C@@H]23)[C@@]2(C)CC[C@@H](O)C[C@@H]12.[Na+] — liver weight (ob/ob NASH mouse model; oral, 3 mg/kg once daily, 8 weeks): 4.9 ± 0.1 g
CC1SC(N/N=C2\c3ccccc3-c3nc4cc(F)ccc4nc32)=NC1=O (stereo not drawn) — blood glucose (mice with STZ-induced diabetes; oral, 25 mg/kg, 216 h, day 9): 294 ± 31.3 mg/dL
CC12CC(O)C3CC1(OC1OC(CO)C(O)C(O)C1O)C3(COC(=O)c1ccccc1)C(=O)O2 (stereo not drawn) — sucrose preference (rats, chronic stress depression model; oral, 7 mg/kg, 14 days; baseline: depression group): increased
CC[C@H](C)[C@H](NC(=O)[C@H](CC(N)=O)NC(=O)[C@H](CC(N)=O)NC(=O)[C@H](CCCNC(=N)N)NC(=O)[C@H](CC(N)=O)NC(=O)[C@H](CCCNC(=N)N)NC(=O)[C@H](CCCCN)NC(=O)[C@@H](NC(=O)[C@H](CC(N)=O)NC(=O)[C@H](CCSC)NC(=O)[C@H](CC(C)C)NC(=O)[C@H](Cc1c[nH]c2ccccc12)NC(=O)[C@H](CCC(N)=O)NC(=O)[C@@H](NC(=O)[C@H](Cc1ccccc1)NC(=O)[C@H](CC(=O)O)NC(=O)[C@H](CCC(N)=O)NC(=O)[C@H](C)NC(=O)[C@H](CCCNC(=N)N)NC(=O)[C@H](CCCNC(=N)N)NC(=O)[C@H](CO)NC(=O)[C@H](CC(=O)O)NC(=O)[C@H](CC(C)C)NC(=O)[C@H](Cc1ccc(O)cc1)NC(=O)[C@H](CCCCN)NC(=O)[C@H](CO)NC(=O)[C@H](Cc1ccc(O)cc1)NC(=O)[C@H](CC(=O)O)NC(=O)[C@H](CO)NC(=O)[C@@H](NC(=O)[C@H](Cc1ccccc1)NC(=O)[C@@H](NC(=O)CNC(=O)[C@H](CCC(=O)O)NC(=O)[C@@H](CO)NC(=O)[C@@H](N)Cc1c[nH]cn1)[C@@H](C)O)[C@@H](C)O)C(C)C)[C@@H](C)O)C(=O)N[C@@H](C)C(=O)N[C@@H](CSCC(=O)NCCOCCOCCOCCOCCC(=O)O[C@H]1CC[C@@]2(C)C(=CC[C@H]3[C@@H]4CC[C@H]([C@H](C)CCCC(C)C)[C@@]4(C)CC[C@@H]32)C1)C(N)=O — adiponectin level (diet-induced obese mice, plasma; subcutaneous, 1.9 µmol/kg, 14 days, chronic dosing): 20 ± 1 µg/mL
O=C(/C=C/c1ccc(O)c(O)c1)OCCCC[P+](c1ccccc1)(c1ccccc1)c1ccccc1 — cytochrome c release (rat liver mitochondria; 10 µM, 15 min): 60 pmol/mg protein
C[C@H](NC(=O)COC(=O)[C@H](C)NC(=O)CO)C(=O)O — depolymerization rate constant (water; pH 5, 65 °C): 0.843 h⁻¹
O=C(CN1CCC(O)CC1)Nc1nc(-c2ccccc2)cs1 — hydroxyl radical scavenging (Fe3+/ascorbic acid system; concentration not given, 30 min, 37 °C, with: DMSO 33 mM): 75.3%
C=C(c1ncc(C(=O)O)cn1)c1cc2c(cc1C)C(C)(C)CCC2(C)C — log2 fold change (RNA sequencing, refers to: Nmu; rat, brain; dose not given, 24 h; baseline: vehicle): -0.5
N[C@@H](Cc1c[nH]cn1)C(=O)N1CCC[C@H]1C(=O)NCC(=O)NCC(=O)O — enthalpy of activation (diketopiperazine formation, transition state theory; 1-propanol; concentration not given, 70, 80, 90 °C, 0.5% acetic acid): 19.8 ± 0.717 kcal/mol
FC(F)(F)c1ccccc1/N=c1\oc2ccccc2cc1-c1ccccc1 — oedema reduction (rat, formalin paw oedema; intraperitoneal, 20 mg/kg, 2 h): 39.9 ± 3.1%
CCCc1nc2cc(C(=O)N3CCC4(CC3)CC(=O)c3cc5c(cc3O4)OC(C)(C)CC5)cc(C)c2[nH]1 — liver weight (refers to: liver and liver/body weight ratio; C57BL/6J male mouse, HFD-induced NASH; intragastric, dose not given, daily weeks 10 to 22; baseline: vehicle): decreased
CC(C)C[C@H](N)C(=O)N1CCC[C@H]1C(=O)NCC(=O)NCC(=O)O — enthalpy of activation (diketopiperazine formation, transition state theory; 1-propanol; concentration not given, 70, 80, 90 °C, 0.5% acetic acid): 24.4 ± 1.43 kcal/mol
CCCN1C(=O)CCc2cc(NS(=O)(=O)Cc3ccc(C)cc3)ccc21 — water loss (Arabidopsis thaliana Col-0, one month old, detached rosette leaves; 50 µM spray, rapid dehydration; baseline: DMSO): decreased
Oc1ccc2nc1CNCCNCCNC2 — log beta ML (pH-potentiometric titration; 298 K, I 0.15 M NaCl, with: Mg2+): 5.17
COc1cc2c(NC3CCN(C(C)C)CC3)cc(N3CCOCC3)nc2cc1OCCCN1CCCC1 — time in open field centre (5xFAD mice; intraperitoneal, 1 mg/kg every 3.5 days, 6 weeks): no effect
O=C1NC(=O)C(C2CCOc3cc(Oc4ccc(C(F)(F)F)cc4Cl)ccc32)S1 (stereo not drawn) — GLP-1 release (refers to: total GLP-1; colonic crypt cultures, wild type, mouse, ex vivo; 1 µM, 2 h, unit not given; baseline: vehicle): 2.8 ± 0.4
Cc1cnc(Nc2cc(C)c(C)c(C)c2)nc1Nc1ccc2oc(=O)[nH]c2c1 — pAkt level (refers to: phospho-Akt; rat, OVA asthma model, lung tissue; dose not given, 2 h after OVA challenge): no effect
CCCCCCCCCCCCCCCC(=O)OCC(CSC[C@H](N)C(=O)N[C@@H](CO)C(=O)N[C@@H](CCCCN)C(=O)N[C@@H](CCCCN)C(=O)N[C@@H](CCCCN)C(=O)N[C@@H](CCCCN)C(=O)NCCCCCC(=O)N[C@@H](CCCCN)C(=O)N[C@@H](CC(C)C)C(=O)N[C@H](C(=O)N[C@@H](Cc1ccccc1)C(=O)N[C@@H](Cc1ccccc1)C(=O)N[C@@H](Cc1ccc2ccccc2c1)C(=O)O)C(C)C)OC(=O)CCCCCCCCCCCCCCC (stereo partly drawn) — plaque load ratio (refers to: thioflavin S plaques; APP/PS1 mouse, 9 months; intrahippocampal, 100 µM, 300 nL, 5 d; baseline: injected over adjacent side): 0.13 ± 0.2
FC(F)(F)Oc1ccc(/N=c2\oc3ccccc3cc2-c2ccccc2)cc1 — oedema reduction (rat, formalin paw oedema; intraperitoneal, 20 mg/kg, 4 h): 52.9 ± 3.6%
Cn1c(=O)c(=O)n(C)c2cc(S(=O)(=O)Nc3ccc(S(=O)(=O)Nc4ncccn4)cc3)ccc21 — blood glucose (IPGTT; HFD/STZ diabetic male albino mice; 10 mg/kg, 2 h): 117 ± 7.2 mg/dL
O=C(CCN1CCC(O)CC1)Nc1nccs1 — inhibition in vivo (paw oedema; mouse; intraperitoneal, 200 µmol/kg): 26.1%

Repeated from above:
N[C@@H](CCC(=O)O)C(=O)N1CCC[C@H]1C(=O)NCC(=O)NCC(=O)O — enthalpy of activation (diketopiperazine formation, transition state theory; 1-propanol; concentration not given, 70, 80, 90 °C, 0.5% acetic acid): 16.5 ± 3.59 kcal/mol
COc1c2c(cc3oc(C)cc(=O)c13)O[C@H](C(C)(C)O[C@@H]1O[C@H](CO)[C@@H](O)[C@H](O)[C@H]1O)C2 — hot plate latency (analgesia; mouse; oral, 1 mg/kg, 1.5 h): 9.82 ± 1.08 s
COc1cc(CN2CCN(c3ccc(F)cc3)CC2)c2cc3[n+](cc2c1O)CCc1cc2c(cc1-3)OCO2 — FRAP absorbance (ferric reducing power, FRAP; 10 µg/mL, 30 min; higher is greater reducing power): 0.002 ± 1.05 a.u.
CSCC[C@H](N)C(=O)N1CCC[C@H]1C(=O)NCC(=O)NCC(=O)O — ΔS‡ at 298.15 K (diketopiperazine formation, transition state theory; 1-propanol; 70, 80, 90 °C, 0.5% acetic acid): -19 ± 3 J/(mol·K)
Cc1ccc(C(=O)Nc2ccc(CP(=O)(O)O)cc2CP(=O)(O)O)cc1NC(=O)c1cccc(NC(=O)Nc2cccc(C(=O)Nc3cc(C(=O)Nc4ccc(CP(=O)(O)O)cc4CP(=O)(O)O)ccc3C)c2)c1 — PT (human plasma; 282 µM): 14.2 ± 1.3 s
CCCCCCCCCCCCCCc1sc(NC(=O)CCN2CCC(O)CC2)nc1-c1ccccc1 — inhibition in vivo (paw oedema; mouse; intraperitoneal, 200 µmol/kg): 32.2%
